Assay results pooled from the literature.
Every numbered part comes from another study and shows a few of its results, in no order.

Set 1
Target: PABPC1L2, full length, GST fusion (mouse, UniProt A0ABA7IW68)
Technique: RNAcompete
Form: RNA
Matrix: in vitro
Concentration: 20 nM
Setting: 7-mer, probes averaged, single round
Reference: mean of 7-mers
Direction: higher = stronger binding
Construct (chain): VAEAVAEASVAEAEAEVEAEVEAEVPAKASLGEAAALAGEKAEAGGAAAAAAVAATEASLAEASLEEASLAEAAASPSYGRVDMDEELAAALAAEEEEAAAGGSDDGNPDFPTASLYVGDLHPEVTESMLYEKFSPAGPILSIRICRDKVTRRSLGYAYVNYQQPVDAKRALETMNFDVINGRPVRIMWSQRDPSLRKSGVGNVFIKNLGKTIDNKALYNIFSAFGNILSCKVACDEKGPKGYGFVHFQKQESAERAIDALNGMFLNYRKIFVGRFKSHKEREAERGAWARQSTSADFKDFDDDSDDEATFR
Strand	7-mer Z-score
UGGGCAC	-0.0101
GGUGAAA	0.47
UACUUGC	-0.229
GCCGACA	-0.0627
GAAAACG	1.83

Set 2
Target: Histone acetyltransferase KAT6A, winged helix 2, GST fusion (KAT6A, Homo sapiens, UniProt Q92794, residues 85-181)
Technique: protein binding microarray
Form: double-stranded DNA, one strand shown
Matrix: in vitro
Concentration: not given
Setting: 8-mer, flanks averaged, mean of 2 arrays, mostly near background
Reference: not given
Direction: higher = stronger binding
Target sequence (chain): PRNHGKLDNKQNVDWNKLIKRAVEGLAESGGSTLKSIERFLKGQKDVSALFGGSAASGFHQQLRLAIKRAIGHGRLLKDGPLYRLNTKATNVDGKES
Strand	E-score
AAAATAGC	-0.209
AGGGGAGA	-0.162
CCCATCGG	0.218
CAACGCTG	0.101
CGCAGGAA	0.0352
CGTCCTAC	-0.179
GAAGCATC	0.0534
AATGTCAT	-0.0901

Set 3
Target: RNA binding protein fox-1 homolog 2, RRM domain, GST-SBP tag (RBFOX2, Homo sapiens, UniProt O43251-10, residues 100-194)
Technique: RNA Bind-n-Seq
Form: RNA
Matrix: in vitro
Concentration: 365 nM
Setting: natural RNA segment, single round, ends assumed
Reference: no-protein control
Direction: higher = stronger binding
Shared flanks, not repeated: GGGAGUUCUACAGUCCGACGAUC … UGGAAUUCUCGGGUGCCAA
Strand	RBNS enrichment (R)
CAAACAAUAAAAAAUUGUAUUUUUUCAAUAUUGUAUAAACAAUAGUGUUCUAAUUACCUUAAAAAAAAAUAAUGACCAGUUAAGAAUUGCUUUUGAUCUUGUCAAAAAAC	0.729
AACAAUUGUUUUGAGAGAGAUGGCUGGUCAUGCCACAGCUGCUGGGGACUCCGCCUACUCCAGCCCUCUUGGGACACACUGUGGGAUUUGUGGCCCUUCCCCAGAGGAAU	0.55
AGCCUAAGUUUGUAUUUGUAAAUUUCUUAUGCCAUCCUCUAGUCAAAUUUUUUUUCAUUGUUUAAAAAUACGGAAGUGUUCCAAUAUAAUUUUUUCCUGUACUGGAUGGC	0.733
GGGAAAUUGAUUAAAGGGGCUGUCUCCCAAUGAAAGAGGCAUUCCCAGAAUUUGCUGCAUUUAGAUUUUGAUACCAGUGAGCAGAGCCCUCAUGUGACAUGAACCCAUCC	1.25
UUUUGGGACUUAUAUGAUUUUAAAUAUUUCAUAUUCUCCCUCCCACUCCUACUCUCCCUCCUUCCCUCUCUCCAUCCCUUCCUCCUACCUAAAGGAAUGGAAUGAUGCUG	0.564
GCGGAGACCAUUUCCAGGCCUUAUUGAGACCAGACCCCAAGUCCCCCACCCCCAUCCUGCUCCAGCGUUUCCUCUAACAGGGACCAGCUCUCCGCUUUGCCCCCACGGGG	0.363
CAUGCCAGUACCUGCCUGGGGGUGGGGGGUGCCUGGCAGCCAUGAAGCAGGCUGAAAGGCAGAGGGGCUCCAGGUCCUGUUUCCAGCUCCCCUCACUGCACAUGGUGAAG	0.685
AGUCCUCUAACACCCCUUGAGACCAAUUCUGCCACUGUAUUUAGAAGCUUUGAGUUAAAGGAUUUGACGACCACAAAAAACCAAAACCAAAACCAAAAACAAAAACCCAG	0.361

Mixed results
Substance	target	assay	system	setting	how to read	endpoint	result
PhoQ, residues 284 288 289 292 302 303 TYGVAM	PhoP, residues 12 14 15 18 19 LYFRQ (Escherichia coli, UniProt P23836)	Sort-seq, item: YFP reporter	E. coli	PhoQ-PhoP variant library, together with: 10 µM Mg2+	reference: high Mg2+ state, higher = stronger signaling	fold induction	9.1

Repeated from above (set 1):
Strand	7-mer Z-score
UGGGCAC	-0.0101
GGUGAAA	0.47
